Measured values from different studies.
Each line is one published result; not all experiments were run side by side. Values joined by “and” are separate records of one study, mostly repeats; a detail may differ. Numbers after ± are the reported error.
Chain of UniProt Q9BUB5 (whole entry, looked up): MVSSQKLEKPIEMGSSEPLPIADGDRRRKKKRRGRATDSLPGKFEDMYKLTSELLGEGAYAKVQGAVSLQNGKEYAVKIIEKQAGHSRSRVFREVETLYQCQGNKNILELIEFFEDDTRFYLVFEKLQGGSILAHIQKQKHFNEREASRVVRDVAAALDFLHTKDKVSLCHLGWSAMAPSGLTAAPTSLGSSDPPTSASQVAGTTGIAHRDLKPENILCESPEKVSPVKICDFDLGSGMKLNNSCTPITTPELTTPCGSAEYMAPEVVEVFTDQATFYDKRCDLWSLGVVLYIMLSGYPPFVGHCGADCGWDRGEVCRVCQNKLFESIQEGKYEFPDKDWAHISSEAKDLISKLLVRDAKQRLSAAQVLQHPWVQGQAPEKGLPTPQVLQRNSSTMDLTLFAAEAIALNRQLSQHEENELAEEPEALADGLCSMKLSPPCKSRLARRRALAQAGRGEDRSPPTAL
Chain of UniProt Q6PHR2 (whole entry, looked up): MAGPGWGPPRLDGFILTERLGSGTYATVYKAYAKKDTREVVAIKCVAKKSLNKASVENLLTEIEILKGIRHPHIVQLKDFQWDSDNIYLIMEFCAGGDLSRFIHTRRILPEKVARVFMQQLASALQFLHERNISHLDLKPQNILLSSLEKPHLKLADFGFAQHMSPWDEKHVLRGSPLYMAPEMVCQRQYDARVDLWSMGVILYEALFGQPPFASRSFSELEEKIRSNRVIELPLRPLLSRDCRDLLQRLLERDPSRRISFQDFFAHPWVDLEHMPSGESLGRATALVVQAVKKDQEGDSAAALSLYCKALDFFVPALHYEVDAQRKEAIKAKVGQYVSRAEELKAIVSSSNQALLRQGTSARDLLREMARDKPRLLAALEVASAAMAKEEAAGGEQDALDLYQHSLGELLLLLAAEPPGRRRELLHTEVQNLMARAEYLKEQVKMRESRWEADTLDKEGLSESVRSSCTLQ
Chain of UniProt P57059 (whole entry, looked up): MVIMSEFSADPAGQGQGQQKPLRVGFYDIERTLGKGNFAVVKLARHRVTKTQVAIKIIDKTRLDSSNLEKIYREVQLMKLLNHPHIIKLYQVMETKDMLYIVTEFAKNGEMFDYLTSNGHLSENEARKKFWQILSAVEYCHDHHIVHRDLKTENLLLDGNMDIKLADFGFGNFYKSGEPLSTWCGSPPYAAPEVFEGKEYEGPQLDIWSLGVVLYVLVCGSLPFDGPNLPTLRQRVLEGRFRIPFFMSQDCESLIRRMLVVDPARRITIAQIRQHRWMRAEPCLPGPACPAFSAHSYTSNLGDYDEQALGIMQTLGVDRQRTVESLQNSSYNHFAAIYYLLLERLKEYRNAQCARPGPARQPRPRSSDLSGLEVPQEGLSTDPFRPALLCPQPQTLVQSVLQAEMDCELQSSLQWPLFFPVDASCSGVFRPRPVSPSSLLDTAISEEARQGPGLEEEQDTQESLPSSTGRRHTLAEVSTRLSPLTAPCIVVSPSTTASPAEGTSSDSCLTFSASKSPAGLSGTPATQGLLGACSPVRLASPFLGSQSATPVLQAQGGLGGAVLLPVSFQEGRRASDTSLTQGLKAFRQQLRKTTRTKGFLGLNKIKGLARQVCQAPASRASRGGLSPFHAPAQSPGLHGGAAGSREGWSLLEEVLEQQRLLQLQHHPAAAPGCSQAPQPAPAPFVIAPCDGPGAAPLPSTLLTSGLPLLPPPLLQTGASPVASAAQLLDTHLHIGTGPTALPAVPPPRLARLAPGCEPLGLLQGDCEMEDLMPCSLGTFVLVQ
Chain of UniProt Q86Y07 (whole entry, looked up): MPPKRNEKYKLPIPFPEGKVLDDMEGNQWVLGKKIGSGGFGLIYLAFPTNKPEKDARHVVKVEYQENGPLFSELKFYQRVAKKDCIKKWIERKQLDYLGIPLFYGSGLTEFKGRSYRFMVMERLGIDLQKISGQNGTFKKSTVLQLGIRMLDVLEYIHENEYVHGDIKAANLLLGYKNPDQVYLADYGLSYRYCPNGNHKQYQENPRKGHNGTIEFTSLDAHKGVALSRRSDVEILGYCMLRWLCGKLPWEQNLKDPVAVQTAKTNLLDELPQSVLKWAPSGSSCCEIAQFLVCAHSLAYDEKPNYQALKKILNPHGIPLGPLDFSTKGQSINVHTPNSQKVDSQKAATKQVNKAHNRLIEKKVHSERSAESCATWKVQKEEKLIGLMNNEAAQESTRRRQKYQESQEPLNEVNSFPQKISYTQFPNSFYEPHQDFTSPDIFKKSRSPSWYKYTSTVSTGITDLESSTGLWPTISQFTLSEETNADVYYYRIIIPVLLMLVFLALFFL

| SMILES | target or system | assay | test system | conditions | scale | endpoint | value |
| --- | --- | --- | --- | --- | --- | --- | --- |
| Nc1ncc(-c2cc(-c3cnn(CC(F)(F)F)c3)ncc2F)nc1C(=O)NC1CNCC(F)C1 (stereo not drawn) | ABL1(H396P)-phosphorylated | KINOMEscan competition binding | – | 1 µM | baseline: DMSO control | remaining binding | 62% |
| Cc1ccc2c(n1)c(-c1cccc(S(C)(=O)=O)c1)c(C)n2C/C(F)=C/CN | GABAA receptor (rat) | binding, radioligand binding | rat tissue | 10 µM, Chloride | – | inhibition | 6% |
| C#CCNC(=O)CN(Cc1ccc(-c2ccc(F)c(CN3CCS(=O)(=O)CC3)n2)cc1)C(=O)c1ccc(C2(C(F)(F)F)N=N2)cc1 | glutathione S-transferase Mu 6 | chemical proteomics | CHO cells overexpressing CB2 | 10 µM | baseline: untreated | photoaffinity enrichment | > 13 fold |
| Cc1cc(O)cc(C)c1C[C@H](N)C(=O)N[C@H](CCCNC(=N)N)C(=O)N[C@@H](Cc1ccccc1)C(=O)N[C@@H](CCCCN)C(=O)NCCNC(=O)[C@@H]1Cc2ccccc2CN1C(=O)[C@@H](N)Cc1c(C)cc(O)cc1C | delta opioid receptor (mouse) | antagonist | mouse vas deferens | added: DPDPE | – | Ke | 9.11 ± 0.79 nM |
| Cc1[nH]nc2c1N=C(c1ccccc1Cl)c1cnc(N3CCOCC3)cc1N2 | GABAA receptor flunitrazepam site, rat | radioligand binding | brain | 10 µM | – | inhibition | 73% |
| O=C1NC(=O)c2c1c1cc(F)c[n+]3c1c1c2c2cc(O)ccc2[n]1[Ru-4]312([N]=C=S)[S+]3CC[S+]1CC[S+]2CC3 (stereo not drawn) | Serine/threonine-protein kinase ULK3 (ULK3, Homo sapiens, UniProt Q6PHR2) | enzyme activity | – | 100 nM, human enzyme, added: 10 µM ATP | baseline: untreated | remaining activity | 83% |
| CC(C)(C)C(=O)OCOP(=O)(OCOC(=O)C(C)(C)C)C1CCCN(O)C1=O (stereo not drawn) | HCT-15 | – | – | – | – | log GI50 | -6.17 log M |
| Cc1cc(O)cc(C)c1C[C@H](N)C(=O)N[C@H](CCCNC(=N)N)C(=O)N[C@@H](Cc1ccccc1)C(=O)N[C@@H](CCCCN)C(=O)NCCCCCCCCCCCCNC(=O)[C@H](Cc1ccccc1)NC(=O)[C@H](CC1CCCCC1)NC[C@@H]1Cc2ccccc2CN1C(=O)[C@@H](N)Cc1ccc(O)cc1 | delta opioid receptor (mouse) | antagonist | mouse vas deferens | added: DPDPE | – | Ke | 1800 ± 90 nM |
| O=C(CN1CN(c2ccccc2)C2(CCN(C(=O)c3cnc4[nH]ncc4c3)CC2)C1=O)NCC(F)(F)F | FLT3-ITD | – | – | concentration not given | – | inhibition | < 50% |
| CC[C@H](C)[C@H](NC(=O)[C@H](CO)NC(=O)[C@H](Cc1ccc(O)cc1)NC(=O)[C@H](Cc1ccc(O)cc1)NC(=O)[C@H](CC(N)=O)NC(=O)CNC(=O)[C@H](CO)NC(=O)[C@H](Cc1ccc(O)cc1)NC(=O)[C@H](CO)NC(=O)[C@H](CO)NC(=O)[C@H](CC(N)=O)NC(=O)COCCOCCNC(=O)CN1CCN(CC(=O)O)CCN(CC(=O)O)CCN(CC(=O)O)CC1)C(=O)N[C@@H](CC(C)C)C(N)=O [copper-64 labelled] | – | dynamic PET | KPC mouse Ptf1a-CreER tdTomato, metastases | intravenous, 4.6 MBq/mouse, 0.9 min, 84 d after tamoxifen | – | tissue uptake | 10.4 %ID/mL |
| COc1ccccc1-c1n[nH]c2nc(N[C@H]3CC[C@H](NS(=O)(=O)CC(C)C)CC3)ncc12 | Leishmania donovani LINJ.11.1000 | bead binding competition | Leishmania donovani extract | 20 µM | baseline: vehicle | relative abundance | 0.85 |
| CC(C)[C@H]1NC(=O)C[C@H]2/C=C/CCSSC[C@@H](NC1=O)C(=O)N[C@H](Cc1cccc3ccccc13)C(=O)NCC(=O)O2 | MAP kinase-interacting serine/threonine-protein kinase 1 (MKNK1, Homo sapiens, UniProt Q9BUB5) | enzyme activity, inhibitor | – | 10 µM | – | inhibition | 1.3% |
| CS(C)(=O)=Nc1ccc(-c2ccc(-c3nc4cc(O[C@@H]5CO[C@H]6[C@@H]5OC[C@H]6O)[nH]c4cc3F)cc2)cc1 | Serine/threonine-protein kinase SIK1 (SIK1, Homo sapiens, UniProt P57059) | enzyme activity, inhibitor | – | 10 µM | – | inhibition | 1% |
| CN(C)[C@H]1C[C@@]23CC[C@@]4(O2)C(=CC[C@]2(C)[C@@H](c5ccc6ccncc6c5)CC[C@H]24)C=C3[C@@H](O)[C@@H]1O | Serine/threonine-protein kinase VRK2 (VRK2, Homo sapiens, UniProt Q86Y07) | ATP probe labelling, inhibitor, KiNativ profiling | – | 0.1 µM | – | inhibition | -0.2% |
| O=C1NC2(CC2)COc2ncc(F)cc2[C@H]2COCCN2c2ccn3ncc1c3n2 | – | – | Sprague-Dawley rat, female, serum | oral, 2.5 mg/kg/day, end of recovery, 4-week subacute toxicity | – | serum total bilirubin | 1.4 ± 0.5 µmol/L |
| CSCC[C@@H]1NC(=O)[C@H](Cc2ccccc2)NC(=O)CNC(=O)[C@H](NC(=O)[C@@H](N)Cc2ccc(O)cc2)CSSC[C@@H](C(=O)N[C@@H](Cc2c[nH]c3ccccc23)C(=O)NCc2cc(C(F)(F)F)cc(C(F)(F)F)c2)NC(=O)[C@@H]2CCCN2C1=O | mu opioid receptor, guinea pig | inhibition of contraction, agonist | electrically stimulated guinea pig ileum | – | – | IC50 | 1000 ± 200 nM |
| CC[C@@H]1CN2CCc3c([nH]c4cccc(OC)c34)[C@@H]2C[C@@H]1/C(=C\OC)C(=O)OC | rabbit anti-mitragynine polyclonal IgG | antigen binding, competitor, competitive indirect ELISA | 15% methanol | 90 min antibody-standard, 60 min antibody-antigen incubation | – | IC50 | 0.09 µg/mL and 0.1 µg/mL |
| CC(C)C[C@H](NC(=O)[C@H](CC(=O)O)NC(=O)[C@@H](NC(=O)[C@H](CCC(=O)O)NC(=O)[C@H](CCCCN)NC(=O)[C@H](Cc1ccc(O)cc1)NC(=O)[C@H](CCCCN)NC(=O)[C@H](Cc1c[nH]cn1)NC(=O)CNC(=O)CN)[C@@H](C)O)C(N)=O | HCV IRES RNA | MALDI-TOF mass spectrometry, item: 5'-hydroxyl products | hepatitis C virus | – | – | initial cleavage rate | 1.1 ± 0.1 %/min |
| COc1ccccc1-c1n[nH]c2nc(NC3CCN(C(=O)Cc4ccc(F)cc4F)CC3)ncc12 | Leishmania donovani CYC6 (LINJ.32.3520) | bead binding competition | Leishmania donovani extract | 10 µM | baseline: vehicle | relative abundance | 0.7 |
| CC[C@H](C)[C@@H]1NC(=O)CNC(=O)[C@H](CC(=O)O)NC(=O)[C@H](CC(=O)O)NC(=O)[C@@H]2CSSC[C@@H]3NC(=O)[C@H](Cc4c[nH]cn4)NC(=O)[C@H](CCCNC(=N)N)NC(=O)[C@H](CCCNC(=N)N)NC(=O)[C@@H](NC(=O)[C@H](CO)NC(=O)[C@@H](N)Cc4c[nH]cn4)CSSC[C@H](NC(=O)[C@H](C)NC(=O)[C@H](Cc4c[nH]c5ccccc45)NC(=O)CNC(=O)[C@H](CSSC[C@@H](C(=O)N[C@@H](CCCCN)C(=O)N4CCC[C@H]4C(=O)N[C@@H](CC(C)C)C(=O)N[C@@H](CCCNC(=N)N)C(=O)N[C@H](C(=O)O)C(C)C)NC1=O)NC(=O)[C@H](CCCNC(=N)N)NC(=O)[C@H](CCCNC(=N)N)NC(=O)[C@H](CC(N)=O)NC(=O)[C@H](CCC(=O)O)NC(=O)[C@H](Cc1c[nH]cn1)NC3=O)C(=O)N[C@@H](Cc1ccc(O)cc1)C(=O)N2 | hKv1.7 human | – | – | concentration not given | – | ion current | no effect |
| CC[C@H](C)[C@H](NC(=O)[C@H](CC(C)C)NC(=O)[C@H](CC(C)C)NC(=O)[C@H](CC(=O)O)NC(=O)[C@@H](NC(=O)[C@H](CCC(=O)O)NC(=O)[C@H](CCCCN)NC(=O)[C@H](Cc1ccc(O)cc1)NC(=O)[C@H](CCCCN)NC(=O)[C@H](Cc1c[nH]cn1)NC(=O)CNC(=O)CN)[C@@H](C)O)C(=O)N[C@@H](CC(C)C)C(=O)N[C@@H](Cc1ccccc1)C(=O)N[C@@H](CCCCN)C(=O)N[C@@H](CC(=O)O)C(=O)N[C@@H](CC(=O)O)C(=O)N[C@@H](Cc1ccc(O)cc1)C(=O)N[C@@H](Cc1ccccc1)C(=O)N[C@@H](C)C(=O)N[C@@H](CCCCN)C(=O)N[C@@H](CCCCN)C(=O)N[C@@H](CC(N)=O)C(=O)N[C@@H](CCC(=O)O)C(=O)N[C@@H](CCC(=O)O)C(=O)N[C@@H](CCCNC(=N)N)C(=O)N[C@@H](CCCCN)C(N)=O | HCV IRES RNA | MALDI-TOF mass spectrometry, item: 2',3'-cyclic phosphate products | hepatitis C virus | – | – | initial cleavage rate | 10.5 ± 4.3 %/min |

Repeated from above:
| SMILES | target or system | assay | test system | conditions | scale | endpoint | value |
| --- | --- | --- | --- | --- | --- | --- | --- |
| Nc1ncc(-c2cc(-c3cnn(CC(F)(F)F)c3)ncc2F)nc1C(=O)NC1CNCC(F)C1 (stereo not drawn) | ABL1(H396P)-phosphorylated | KINOMEscan competition binding | – | 1 µM | baseline: DMSO control | remaining binding | 62% |
| Cc1ccc2c(n1)c(-c1cccc(S(C)(=O)=O)c1)c(C)n2C/C(F)=C/CN | GABAA receptor (rat) | binding, radioligand binding | rat tissue | 10 µM, Chloride | – | inhibition | 6% |
| C#CCNC(=O)CN(Cc1ccc(-c2ccc(F)c(CN3CCS(=O)(=O)CC3)n2)cc1)C(=O)c1ccc(C2(C(F)(F)F)N=N2)cc1 | glutathione S-transferase Mu 6 | chemical proteomics | CHO cells overexpressing CB2 | 10 µM | baseline: untreated | photoaffinity enrichment | > 13 fold |
